Published values from different studies.
Each line is one published result; not all experiments were run side by side. Several values in a cell are separate wells, animals, samples, runs or records. ± marks the error that the study gave.
CASP3: Caspase-3 (CASP3, Homo sapiens, UniProt P42574)
UniProt P42574, sequence (whole entry, looked up): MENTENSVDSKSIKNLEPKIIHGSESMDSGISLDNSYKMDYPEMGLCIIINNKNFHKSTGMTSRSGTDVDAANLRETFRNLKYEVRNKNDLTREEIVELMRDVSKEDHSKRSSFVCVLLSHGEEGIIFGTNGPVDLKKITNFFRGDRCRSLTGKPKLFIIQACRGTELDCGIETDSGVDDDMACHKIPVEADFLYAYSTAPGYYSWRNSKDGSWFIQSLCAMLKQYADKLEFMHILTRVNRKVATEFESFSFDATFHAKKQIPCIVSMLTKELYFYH
CHRM1: Muscarinic acetylcholine receptor M1 (CHRM1, Homo sapiens, UniProt P11229)
UniProt P11229, sequence (whole entry, looked up): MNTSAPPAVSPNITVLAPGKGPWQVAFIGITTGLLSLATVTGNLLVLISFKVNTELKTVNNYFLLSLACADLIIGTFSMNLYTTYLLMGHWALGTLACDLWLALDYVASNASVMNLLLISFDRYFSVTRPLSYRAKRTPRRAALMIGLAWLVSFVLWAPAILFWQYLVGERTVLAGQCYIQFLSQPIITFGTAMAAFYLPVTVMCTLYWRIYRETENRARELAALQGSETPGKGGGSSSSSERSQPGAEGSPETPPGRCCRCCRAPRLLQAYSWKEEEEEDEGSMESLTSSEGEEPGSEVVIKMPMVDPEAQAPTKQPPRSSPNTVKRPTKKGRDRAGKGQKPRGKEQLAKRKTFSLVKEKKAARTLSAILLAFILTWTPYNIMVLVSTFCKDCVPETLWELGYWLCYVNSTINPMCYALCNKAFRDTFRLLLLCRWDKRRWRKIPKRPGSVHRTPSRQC
CHRM5: Muscarinic acetylcholine receptor M5 (CHRM5, Homo sapiens, UniProt P08912)
UniProt P07288, sequence (whole entry, looked up): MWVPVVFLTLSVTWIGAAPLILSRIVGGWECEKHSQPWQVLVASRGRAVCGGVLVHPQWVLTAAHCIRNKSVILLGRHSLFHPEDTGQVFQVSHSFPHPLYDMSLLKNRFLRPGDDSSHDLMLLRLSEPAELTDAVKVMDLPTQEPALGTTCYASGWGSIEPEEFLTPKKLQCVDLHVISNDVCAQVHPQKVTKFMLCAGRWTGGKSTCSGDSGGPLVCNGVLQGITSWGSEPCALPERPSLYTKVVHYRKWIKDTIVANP
UniProt P08912, sequence (whole entry, looked up): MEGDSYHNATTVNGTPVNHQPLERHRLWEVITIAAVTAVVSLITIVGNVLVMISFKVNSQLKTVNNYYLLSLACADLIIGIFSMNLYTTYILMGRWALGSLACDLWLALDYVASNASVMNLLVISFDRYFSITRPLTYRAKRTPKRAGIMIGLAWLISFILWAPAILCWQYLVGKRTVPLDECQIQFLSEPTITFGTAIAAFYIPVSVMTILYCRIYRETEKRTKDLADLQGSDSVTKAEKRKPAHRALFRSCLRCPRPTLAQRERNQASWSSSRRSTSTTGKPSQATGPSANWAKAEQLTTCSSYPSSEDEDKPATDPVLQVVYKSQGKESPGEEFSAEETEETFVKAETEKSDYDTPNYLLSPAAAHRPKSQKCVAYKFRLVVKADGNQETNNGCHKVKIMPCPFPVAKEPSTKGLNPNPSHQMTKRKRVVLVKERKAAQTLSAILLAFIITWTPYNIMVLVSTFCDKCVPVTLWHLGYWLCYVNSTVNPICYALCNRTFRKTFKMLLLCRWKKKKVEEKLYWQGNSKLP
UniProt P07550, sequence (whole entry, looked up): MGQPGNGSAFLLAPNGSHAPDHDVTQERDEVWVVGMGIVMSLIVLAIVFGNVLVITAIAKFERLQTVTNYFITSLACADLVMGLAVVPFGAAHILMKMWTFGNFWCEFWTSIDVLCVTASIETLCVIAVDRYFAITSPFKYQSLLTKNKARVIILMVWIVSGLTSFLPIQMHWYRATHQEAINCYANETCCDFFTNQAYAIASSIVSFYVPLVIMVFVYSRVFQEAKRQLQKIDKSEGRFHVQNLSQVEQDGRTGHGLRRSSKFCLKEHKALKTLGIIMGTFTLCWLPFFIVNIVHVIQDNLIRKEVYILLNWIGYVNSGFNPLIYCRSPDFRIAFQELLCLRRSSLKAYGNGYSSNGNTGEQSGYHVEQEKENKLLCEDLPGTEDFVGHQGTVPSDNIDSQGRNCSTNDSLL
UniProt P09769, sequence (whole entry, looked up): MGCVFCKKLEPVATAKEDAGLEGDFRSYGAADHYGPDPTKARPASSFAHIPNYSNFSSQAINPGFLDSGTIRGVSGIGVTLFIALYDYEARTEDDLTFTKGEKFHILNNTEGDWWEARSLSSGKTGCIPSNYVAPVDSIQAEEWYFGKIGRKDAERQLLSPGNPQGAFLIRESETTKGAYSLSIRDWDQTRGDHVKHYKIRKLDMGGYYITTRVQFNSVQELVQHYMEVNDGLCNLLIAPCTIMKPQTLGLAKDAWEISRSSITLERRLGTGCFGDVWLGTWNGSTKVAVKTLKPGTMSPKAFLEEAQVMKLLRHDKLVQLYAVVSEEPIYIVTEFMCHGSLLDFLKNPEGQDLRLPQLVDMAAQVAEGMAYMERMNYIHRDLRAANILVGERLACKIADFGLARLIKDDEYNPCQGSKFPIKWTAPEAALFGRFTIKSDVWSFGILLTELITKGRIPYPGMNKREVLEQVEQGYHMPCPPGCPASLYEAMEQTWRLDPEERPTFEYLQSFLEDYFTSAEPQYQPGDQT
UniProt Q12908, sequence (whole entry, looked up): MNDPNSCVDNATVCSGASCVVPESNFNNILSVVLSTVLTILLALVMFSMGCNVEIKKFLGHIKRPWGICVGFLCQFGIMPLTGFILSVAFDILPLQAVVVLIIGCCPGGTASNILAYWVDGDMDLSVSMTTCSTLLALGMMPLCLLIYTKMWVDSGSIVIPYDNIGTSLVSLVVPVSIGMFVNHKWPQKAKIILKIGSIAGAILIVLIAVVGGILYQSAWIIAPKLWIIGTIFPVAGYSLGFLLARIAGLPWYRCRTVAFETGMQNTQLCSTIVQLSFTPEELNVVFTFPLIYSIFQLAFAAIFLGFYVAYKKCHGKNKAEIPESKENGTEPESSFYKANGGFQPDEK
UniProt P61169, sequence (whole entry, looked up): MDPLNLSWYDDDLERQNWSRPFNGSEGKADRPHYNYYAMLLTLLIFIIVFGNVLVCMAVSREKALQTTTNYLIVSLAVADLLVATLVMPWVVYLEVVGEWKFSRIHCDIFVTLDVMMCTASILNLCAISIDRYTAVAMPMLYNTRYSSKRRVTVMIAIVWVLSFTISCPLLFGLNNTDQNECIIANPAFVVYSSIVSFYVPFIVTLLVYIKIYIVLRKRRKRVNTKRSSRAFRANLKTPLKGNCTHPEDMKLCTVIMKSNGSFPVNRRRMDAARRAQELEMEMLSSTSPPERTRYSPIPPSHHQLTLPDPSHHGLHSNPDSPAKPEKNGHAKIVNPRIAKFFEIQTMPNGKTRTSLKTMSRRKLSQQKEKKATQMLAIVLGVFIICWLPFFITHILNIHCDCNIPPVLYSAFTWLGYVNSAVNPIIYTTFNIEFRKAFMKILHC
UniProt P20309, sequence (whole entry, looked up): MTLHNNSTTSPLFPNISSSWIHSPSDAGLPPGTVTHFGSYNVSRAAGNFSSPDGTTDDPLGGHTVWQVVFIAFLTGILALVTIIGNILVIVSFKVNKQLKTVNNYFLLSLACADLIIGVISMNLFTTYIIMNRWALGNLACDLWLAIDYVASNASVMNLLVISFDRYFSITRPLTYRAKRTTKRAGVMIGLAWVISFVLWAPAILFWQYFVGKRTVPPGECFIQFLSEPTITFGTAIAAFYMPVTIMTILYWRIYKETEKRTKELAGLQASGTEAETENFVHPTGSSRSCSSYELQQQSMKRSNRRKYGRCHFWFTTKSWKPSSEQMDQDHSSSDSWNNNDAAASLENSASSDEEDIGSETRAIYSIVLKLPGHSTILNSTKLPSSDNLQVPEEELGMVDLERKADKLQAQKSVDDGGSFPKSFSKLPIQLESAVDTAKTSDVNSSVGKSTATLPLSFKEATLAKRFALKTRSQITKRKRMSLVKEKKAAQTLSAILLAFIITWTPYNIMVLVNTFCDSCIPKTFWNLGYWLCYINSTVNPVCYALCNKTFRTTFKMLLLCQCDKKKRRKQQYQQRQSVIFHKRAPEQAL
UniProt P42229, sequence (whole entry, looked up): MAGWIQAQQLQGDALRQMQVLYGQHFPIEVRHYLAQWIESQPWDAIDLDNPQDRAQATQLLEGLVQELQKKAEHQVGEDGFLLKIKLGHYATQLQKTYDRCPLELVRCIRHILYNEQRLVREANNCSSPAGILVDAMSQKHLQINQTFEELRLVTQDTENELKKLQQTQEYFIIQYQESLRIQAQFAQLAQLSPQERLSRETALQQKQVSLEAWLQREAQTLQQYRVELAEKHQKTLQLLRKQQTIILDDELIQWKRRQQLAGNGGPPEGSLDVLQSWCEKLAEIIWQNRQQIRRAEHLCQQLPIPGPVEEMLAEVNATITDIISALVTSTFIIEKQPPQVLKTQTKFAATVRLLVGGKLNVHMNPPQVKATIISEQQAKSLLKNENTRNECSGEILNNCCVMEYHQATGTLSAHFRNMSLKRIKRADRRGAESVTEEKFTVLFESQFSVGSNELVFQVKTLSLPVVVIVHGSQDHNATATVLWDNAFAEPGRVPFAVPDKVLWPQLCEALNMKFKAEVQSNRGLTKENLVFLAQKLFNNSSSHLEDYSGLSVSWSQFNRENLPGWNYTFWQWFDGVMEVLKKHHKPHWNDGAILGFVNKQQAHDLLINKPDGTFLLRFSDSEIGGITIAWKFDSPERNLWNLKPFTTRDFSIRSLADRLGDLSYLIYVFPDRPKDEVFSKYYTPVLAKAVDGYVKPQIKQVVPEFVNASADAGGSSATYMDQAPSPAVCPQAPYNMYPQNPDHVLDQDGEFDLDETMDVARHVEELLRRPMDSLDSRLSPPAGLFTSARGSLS

SMILES	target or system	test	test system	conditions	how to read	measurement	value
CC(C)C[C@@H](C=O)NC(=O)[C@H](Cc1c[nH]c2ccccc12)NC(=O)[C@H](CCCCN)NC(=O)[C@H](CO)NC(=O)[C@H](CO)NC(=O)OCc1ccccc1	Prostate-specific antigen (Homo sapiens, UniProt P07288)	enzyme activity, inhibitor, fluorescence	–	pH 7.8	–	Ki	155000 nM and > 100000 nM
C[C@H](CCC(=O)N[C@@H](CCC(=O)Nc1cccc(O)c1)C(=O)O)[C@H]1CC[C@H]2[C@@H]3[C@H](O)C[C@@H]4C[C@H](O)CC[C@]4(C)[C@H]3CC[C@]12C	Ileal sodium/bile acid cotransporter (SLC10A2, Homo sapiens, UniProt Q12908)	taurocholate uptake, inhibitor	ASBT-MDCK	10 min, together with: taurocholate 2.5 µM	–	Ki	2430 nM
CC(=O)N[C@H](C(=O)N[C@@H](CC(=O)O)C(=O)N[C@H](CCCCN)C(=O)N[C@@H](C)C(=O)N[C@H](C=O)CC(=O)O)C(C)C	CASP3	enzyme activity, inhibitor, fluorescence	–	pH 7	–	Ki	> 100000 nM
O=C(COc1ccc2ccccc2c1)NCc1ccc(OP(=O)(O)O)c(OP(=O)(O)O)c1	Signal transducer and activator of transcription 5A, SH2 (Homo sapiens, UniProt P42229)	ligand displacement, FP	–	–	–	Ki	9300 nM
[64Cu+2].c1ccc(CNCc2ccc(CN3CCCN4CCNCCCN(CC4)CC3)cc2)nc1	CXCR4	–	NOD/SCID mouse, U87 and U87-stb-CXCR4 xenografts, muscle	iv, 90 min, ex vivo	–	tissue uptake	0.35 ± 0.05 %ID/g
COc1cc(CN2CCCC2)ccc1OCCN1CCN(c2cccc3sccc23)CC1	D(2) dopamine receptor (Drd2, Rattus norvegicus, UniProt P61169)	cell-free assay, radioligand	–	–	–	Ki	82.5 nM
CC(=O)N[C@H](C(=O)N[C@@H](CCCN)C(=O)N[C@H](C=O)CC(=O)O)C(C)C	CASP3	enzyme activity, inhibitor, fluorescence	–	pH 7	–	Ki	> 100000 nM
O=C1Nc2ccccc2N(C(=O)CN2CCC(CCCCN3CCC(OC(=O)C(c4ccccc4)c4ccccc4)CC3)CC2)c2ccccc21	CHRM1	ligand displacement, radioligand	–	–	–	Ki	20.9 nM
CNC(=O)C1CCN(c2cc(C)c(F)cc2NC(=O)c2ccc(-c3cc(O)ccc3C)c(C)c2)CC1	Tyrosine-protein kinase Fgr (FGR, Homo sapiens, UniProt P09769)	cell-free assay, TR-FRET	–	–	–	Ki	1.8 nM
O=Cc1c(O)ccc2ccccc12	HUVEC	RNA sequencing, refers to: TMEM45B	–	75 µM, 24 h	relative to: DMSO	log2 fold change	2.67
[64Cu+2].c1cnc(CNCc2ccc(CN3CCCN4CCNCCCN(CC4)CC3)cc2)nc1	CXCR4	–	NOD/SCID mouse, U87 and U87-stb-CXCR4 xenografts, liver	iv, 240 min, ex vivo	–	tissue uptake	79.1 ± 4.85 %ID/g
CC(=O)N[C@H](C(=O)N[C@@H](CN)C(=O)N[C@H](C=O)CC(=O)O)C(C)C	CASP3	enzyme activity, inhibitor, fluorescence	–	pH 7	–	Ki	> 100000 nM
O=C1Nc2ccccc2N(C(=O)CN2CCC(CCCCNCCCCC3CCN(CCCN4C(=O)CCc5ccccc54)CC3)CC2)c2ccccc21	CHRM5	ligand displacement, radioligand	–	–	–	Ki	93.3 nM
N=C(N)Nc1nc2ccc(Cl)cc2[nH]1	Bifunctional dihydrofolate reductase-thymidylate synthase, DHFR domain (Trypanosoma cruzi, UniProt Q27793)	enzyme activity, competitive inhibitor	–	together with: dihydrofolate 60 µM, NADPH 100 µM	–	Ki	10600 nM
COc1ccc(CCCN[C@@H]2CCC[C@H]2CN[C@H]2CCC[C@@H]2CNCCCCN[C@@H]2CCC[C@H]2CN)cc1	Amine oxidase [flavin-containing] B (MAOB, Homo sapiens, UniProt P27338)	enzyme activity, inhibitor	–	–	–	Ki	> 500000 nM
CN1CCN(CCCCC2CCN(CC(=O)N3c4ccccc4NC(=O)c4ccccc43)CC2)CC(N)C1 (stereo not drawn)	CHRM5	ligand displacement, radioligand	–	–	–	Ki	138 nM
CNC(=O)c1ccc(-c2cccc3c2OC(CN)C3)cc1 (stereo not drawn)	Beta-2 adrenergic receptor (ADRB2, Homo sapiens, UniProt P07550)	binding, radioligand displacement	SNAP-tagged receptor HEK membranes	together with: 1 nM [3H]dihydroalprenolol	–	Ki	1000 nM
CCCCCCOc1ccc(C(=O)OCC[N+]2(C)CC=CCC2)cc1 (stereo not drawn)	Muscarinic acetylcholine receptor M3 (CHRM3, Homo sapiens, UniProt P20309)	inositol phosphate accumulation, antagonist, Schild analysis	CHO	together with: carbachol	–	Kb	0.0794 µM
CC(C)=CCc1cc(C2CC(=O)c3c(O)cc(O)cc3O2)c2c(c1O)C=CC(C)(C)O2 (stereo not drawn)	Tyrosine-protein phosphatase non-receptor type 1 (PTPN1, Homo sapiens, UniProt P18031)	enzyme activity, inhibitor	–	–	–	Ki	6380 nM
CCCCOc1ccc(C(=O)OCCN2CC=CCC2)cc1	CHRM1	inositol phosphate accumulation, antagonist, Schild analysis	CHO	together with: carbachol	–	Kb	39.8 µM
CC[C@H]1[C@@H](O)[C@@H]2[C@H](CC[C@]3(C)[C@@H]([C@H](C)CCOS(=O)(=O)[O-])CC[C@@H]23)[C@@]2(C)CC[C@@H](O)C[C@@H]12.[Na+]	–	–	ob/ob NASH mice, plasma	oral, 10 mg/kg once daily, 8 wk	–	plasma AST	257 ± 42.3 U/L
